Results of several laboratories.
Numbered parts are unrelated; each lists some results of a single study.

Sample 1 — technique: aptamer microarray, sandwich; molecule type: DNA with 2'F-ANA; matrix: in vitro; concentration: 200 nM; together with: Cy3 exosite-II aptamer, 400 nM; reading: higher = stronger binding; quantity: mean fluorescence intensity; strand: GGTTGGTGTGGTTGG
Target: Prothrombin, mature alpha-thrombin (F2, Homo sapiens, UniProt P00734)
Setting: whole 15-mer aptamer, many near background
2'F-ANA at 1 4 5 7 8 9 10 11 12: 58.4 a.u.
2'F-ANA at 2 3 4 9 10 11 12 13 14 15: 171 a.u.
2'F-ANA at 1 2 4 5 8 10 11 13: 55 a.u.
2'F-ANA at 5 7 8 9 10 12 14: 45.3 a.u.
2'F-ANA at 2 3 8 11 14 15: 380 a.u.
2'F-ANA at 1 2 3 4 5 6 11: 75.6 a.u.
2'F-ANA at 2 5 7 10 12 13: 94.2 a.u.
2'F-ANA at 3 5 6 9 10 11 14: 66.5 a.u.
2'F-ANA at 1 4 6 7 8: 148 a.u.
2'F-ANA at 1 2 3 6 7 9 13 14: 87.2 a.u.
2'F-ANA at 1 3 8 9 10 11 12 13 14 15: 69.9 a.u.
2'F-ANA at 1 3 6 7 8 10 11 12 13 15: 169 a.u.
2'F-ANA at 1 2 3 10 11 14: 57.2 a.u.
2'F-ANA at 3 5 7 8: 174 a.u.
2'F-ANA at 1 3 7 8 11: 335 a.u.
2'F-ANA at 3 7 8 9 12 14 15: 784 a.u.
2'F-ANA at 2 3 5 6 8 10 12: 58.7 a.u.
2'F-ANA at 1 2 4 7 14: 61.7 a.u.
2'F-ANA at 1 2 3 4 6 7 8 11 14 15: 91.2 a.u.
2'F-ANA at 4 5 6 9 11 12 14: 52.4 a.u.
2'F-ANA at 3 4 5 6 7 8 10 11 15: 56.2 a.u.
2'F-ANA at 1 5 7 8 14: 45.4 a.u.
2'F-ANA at 5 8 9 13 15: 69.9 a.u.

Sample 2 — technique: RNAcompete; molecule type: RNA; matrix: in vitro; concentration: 20 nM; setting: 7-mer, probes averaged, single round; relative to: mean of 7-mers; reading: higher = stronger binding; quantity: 7-mer Z-score
Target: PABPC1L2, full length, GST fusion (mouse, UniProt A0ABA7IW68)
Residues (chain): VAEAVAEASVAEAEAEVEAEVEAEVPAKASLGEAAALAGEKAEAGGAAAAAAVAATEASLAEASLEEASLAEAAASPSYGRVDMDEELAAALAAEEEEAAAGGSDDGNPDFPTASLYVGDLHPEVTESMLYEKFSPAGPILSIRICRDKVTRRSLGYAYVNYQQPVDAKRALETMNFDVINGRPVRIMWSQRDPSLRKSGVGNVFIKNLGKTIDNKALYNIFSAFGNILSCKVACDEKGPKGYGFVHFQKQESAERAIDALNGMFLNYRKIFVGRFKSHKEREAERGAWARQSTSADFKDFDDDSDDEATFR
GAAGCUG: -0.00289
CGCGGUU: -0.215
GGAUCAU: -0.0482
GAGAGAC: 0.196
UUGAGAG: -0.0355
ACGCUCU: -0.271
AAGUUAU: 0.253
AAUUAGU: 0.106
AAGCUUU: -0.122
GAUUAAA: 1.04
UAAGGAC: 0.104
GAAAUCU: 0.202
GAUGCGG: 0.0442
AUGCUUG: -0.242
UACUUUA: -0.0518
GGACGCA: 0.278
GUUAGAU: -0.168
CACGUCA: -0.226
ACAACUG: 0.0968
UGAAUAA: 0.461
UAUUUAA: 0.0315
UUUUGAA: 0.0279
UACGGCU: -0.157
GGGGAAU: 0.256
AACAGGG: 1.44

Sample 3 — technique: EMSA with sequencing; molecule type: double-stranded DNA, one strand shown; matrix: in vitro; concentration: 10 and 20 nM; relative to: negative control set to 0; reading: higher = stronger binding; quantity: normalised bound fraction
Target: Hepatocyte nuclear factor 3-alpha (Foxa1, Mus musculus, UniProt P35582, residues 1-468, full length assumed)
UniProt P35582, sequence (whole entry, looked up): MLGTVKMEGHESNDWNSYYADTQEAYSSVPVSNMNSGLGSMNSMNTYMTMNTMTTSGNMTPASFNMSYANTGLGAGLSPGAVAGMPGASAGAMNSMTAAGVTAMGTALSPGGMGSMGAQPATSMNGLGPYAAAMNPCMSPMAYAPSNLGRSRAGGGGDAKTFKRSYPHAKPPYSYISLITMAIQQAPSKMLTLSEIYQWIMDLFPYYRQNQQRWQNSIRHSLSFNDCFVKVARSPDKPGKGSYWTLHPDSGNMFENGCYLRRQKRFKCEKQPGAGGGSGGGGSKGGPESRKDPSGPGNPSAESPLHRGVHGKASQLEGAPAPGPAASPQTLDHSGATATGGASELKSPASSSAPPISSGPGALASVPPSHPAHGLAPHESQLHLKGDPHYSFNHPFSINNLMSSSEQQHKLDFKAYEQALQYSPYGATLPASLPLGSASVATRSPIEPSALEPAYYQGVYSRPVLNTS
Setting: whole designed probe, mean of two concentrations, ends assumed
Constant ends, left off below: GTGAGCGGTGCCCATTGATGGGGAAC … TTTCACTGGGATCGTGGGGAC
AACAGAAACAGGCCAGCCTATTTACACAAGGACGTTTACTACAAAAACCTGAACCAGTGAGTAGCAATAAAGGGCTAGTTAAAAAGACTTCGGTATTTACATAGAACATGAATATGTGCATTATAAAGTTTGAGGTAGATCTATTTATGCCACTGTGGAATGATCTCGAAGATAAATAACTGACAAGCAAGAC: 0.482 ratio
AAAAGTCTGAGCTCATTTATGGTATATTTATTAACAGCCCTAGCCTGGTAAAAAACAACATTGATTTGAACAGTTTTGGATATTTTCCAGCTCCTGTTTACTTTGTTAAAACCATAAAAAAAGTAATCTGGTTCCTTTTGACTTAAATAAGACAAAGAATTCAATACCGAGGCCCTGTTTATAGGTTGTTAAA: 0.263 ratio
GTGTTCAAGGAGGAGCTTTATTAACTCAGCACTTCTAACAATTTCCTAGGTACTTATAAGACATTTCCAAAGTCAAGTTAATGAGCTGCAGAGTAATCTAGAGTCTCTCGTAGTTTCTGAAGTTCGAGAAGAAATTCTACAGAAAGAGGTAAGAAATGGCCAAAATATTGGGCTAAAATAAGTTTTTCTTAGG: -0.0427 ratio
AAGGCTTTTATTAGACATGTGCTTCCTCTACACAGAGTAAATGTACTTGAATTTAAAGTGTCTGTAGAGATTGTTGAGTAATCTAAAATTTGCCTGTTTACATTGCCATATTTAGAGAAATCCAAGTTCAGTGAGATGAATAGGAAAGATATGCTCAAGTTACTGTACTTCAAATGTATACTGATCTTCTTTC: 0.221 ratio
GGGTCCCGGGCGGCGGCAGGAATGCAGGAATGCGCACAGGCTGTGGGCGGCCAGGAGGGAGTCCCGGGGCGGAAGTGCGCCTGCCCCAGTCTTTGTGTACCCTGTCCAACACCTCCCCCCGCCAGCGCGGAAGGCCGGGCTACCTGCGCGCCTGGCAGCGCCTGGCAGCCGGCTGGGTGGGGCGCAGGGGAGC: 0.0164 ratio
TGGGCTGTCCTTGGACAGGGCCATGGGATGCCACTTCCCTCTCTCTCCCTTTGGCAGAGAGCCCTCGGAAACAGGAGTTATTGAGAAACCAAAAGTAATCTGCTCAGCCTCTCCCCGGGGCCTGTGGAGCCTGTTGCCCCGGATGGATGGGGTTAGTGCCAGCAGCTGCTCAGATGATCTGTGGGGCATGTTC: -0.0725 ratio
CCCACCTAGCATAAAATCAAGTAAAGGAGATAACAAATACACCTAAATAAATAATCAAAAATTCTAGAGTGGCTTGAAATCTACATACTACTAAGTAAATATGGAGATGCTGAGAGTAGAACAATATTTATATATGATCAGAGGAATAAAGGAAGTGTCACAGAAAAAATAATATTCCAACTGAGCCATATGA: 0.532 ratio
ATCTTCCCCCTCTTCCTTGCCCCACCAGCTCACCTTCCCGGGTTGTTTACTTTGAGCAAAGTAAACAAAGCCGGCATTCGTTAACCCTCTTCACGCGCATACTGCTGTTTACTTTGGATCTAACATGGTCCTTTGGCGACGCCAGGCTCCGGGAGAGCAAAGCACCGTGTCAGGGCCATGATCCGGGGTGGCC: 0.544 ratio

Sample 4 — technique: protein binding microarray; molecule type: double-stranded DNA, one strand shown; matrix: in vitro; concentration: not given; relative to: not given; reading: higher = stronger binding; quantity: E-score
Target: Histone acetyltransferase KAT6A, winged helix 1, GST fusion (KAT6A, Homo sapiens, UniProt Q92794, residues 1-85)
Setting: 8-mer, flanks averaged, mean of 2 arrays, mostly near background
Construct (chain): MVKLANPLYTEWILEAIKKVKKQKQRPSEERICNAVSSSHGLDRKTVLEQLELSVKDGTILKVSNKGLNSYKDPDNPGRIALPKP
TTCGCGAA: 0.0659
CGAGCCGA: 0.0716
CACACGTA: -0.232
GAGATTTA: -0.0662
GACCGTCC: 0.266
GTATGGTA: -0.0864
AAGACGAA: -0.0388
CAACTCCA: -0.0835
ATCGGTCG: 0.137
ACTCCACT: -0.299
ATTCATGG: -0.102
AACTCGGC: 0.108
CTTCAATC: -0.0492
CATACTGC: -0.0155
ATCATTAG: -0.103
AAGCCAGC: -0.136
ATCACGCG: 0.259
ATCTGCTG: -0.192
TAATCGAA: -0.0188
CCGAATAG: -0.0798
ACAGGGAG: -0.0542
TATTACCA: -0.0992

Sample 5 — technique: protein-binding microarray; molecule type: double-stranded DNA, one strand shown; matrix: in vitro; concentration: 0.8 µM; setting: whole 60-bp probe, no competitor; reading: higher = stronger binding; quantity: fluorescence intensity; constant ends, left off below: … GTCTTGATTCGCTTGACGCTGCTG
Target: Centromere-binding protein 1, full length, N-terminal tag (CBF1, Saccharomyces cerevisiae, UniProt P17106, residues 1-351)
UniProt P17106, sequence (whole entry, looked up): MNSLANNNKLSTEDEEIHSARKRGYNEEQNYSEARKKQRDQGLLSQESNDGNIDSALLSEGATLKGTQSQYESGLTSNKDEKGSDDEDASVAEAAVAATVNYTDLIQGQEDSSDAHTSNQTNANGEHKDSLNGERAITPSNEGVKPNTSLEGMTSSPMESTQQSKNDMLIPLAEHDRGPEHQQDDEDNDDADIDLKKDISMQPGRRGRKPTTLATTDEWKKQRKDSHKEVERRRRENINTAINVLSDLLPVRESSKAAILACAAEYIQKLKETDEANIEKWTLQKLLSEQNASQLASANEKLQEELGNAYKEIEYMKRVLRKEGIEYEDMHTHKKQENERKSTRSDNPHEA
CCTAACTACTATAAGCACATGGAATAGCTTCGTACA: 559 a.u.
GAATCTTGTAGTTGCCACGTGAAACCTGACAACTAG: 3170 a.u.
TGTACGAAGCTATGACATGTGAGTATAGTAGTTAGG: 842 a.u.
CTAAGCTGGAGCTATCTGCTGATTAGTTTTACTTTC: 506 a.u.
GAAATTAAATCAAGGCACGCCAGTGCTGCCTCTTAG: 485 a.u.
CTACTGTGGCCGTGTCAGGTCACGTGAAGAGAGTTC: 22200 a.u.
CTATTTTGTATCCTTTACATCAGGAATAACGTATTC: 559 a.u.
TGTACGAAGCTATGACATCAGACTATAGTAGTTAGG: 561 a.u.
CTAACGATATTTCTGATCGTGATTAAACTGGTATTC: 698 a.u.
CCTAACTACTATAGTCACGTTTCATAGCTTCGTACA: 2210 a.u.
GAATTCTTATTATTCCATGTGTCTCGGGATACCTAG: 557 a.u.
CTAAACAATGCGCTATACGTGCGCAGTAGCTCATTC: 501 a.u.
GAATCAAAAAAAAGACGTGAGGTACTGTTTGCTTAG: 485 a.u.
CTATCTTCTATGTAGCATCAGAAAGAAACACCATTC: 588 a.u.
CTAATACCTCATTTCCACGATGGTAATAGACGATTC: 499 a.u.
CTACCATAGTAAAGTGCTGATGTCTTCTGAGTTTTC: 531 a.u.
TGTACGAAGCTATTGCACGTGACTATAGTAGTTAGG: 18500 a.u.
CTATAGGTTCATCTTCTGATGTTATGTCGAGAGTTC: 545 a.u.
GAATTTTTTGGATTTCAACTGATAGTTTTCGTATAG: 518 a.u.
CTATATTTAGGTATTCTCCTGATTGTTTTCACTTTC: 543 a.u.
GAATCACAAAATGCATACCTGATGCATACACAGTAG: 495 a.u.
CTAACGTTGCTCTTGCACGTGTATTTCGCTGCTTTC: 3580 a.u.
GAATGTACCTAGCATCATGTATTTATTAAGTTTTAG: 506 a.u.

Excerpt of the above (sample 1):
2'F-ANA at 1 2 3 6 7 9 13 14: 87.2 a.u.
2'F-ANA at 1 3 8 9 10 11 12 13 14 15: 69.9 a.u.
2'F-ANA at 1 3 6 7 8 10 11 12 13 15: 169 a.u.
2'F-ANA at 1 2 3 10 11 14: 57.2 a.u.
2'F-ANA at 3 5 7 8: 174 a.u.
2'F-ANA at 1 3 7 8 11: 335 a.u.
2'F-ANA at 3 7 8 9 12 14 15: 784 a.u.
2'F-ANA at 2 3 5 6 8 10 12: 58.7 a.u.
2'F-ANA at 1 2 4 7 14: 61.7 a.u.
2'F-ANA at 1 2 3 4 6 7 8 11 14 15: 91.2 a.u.
2'F-ANA at 4 5 6 9 11 12 14: 52.4 a.u.
2'F-ANA at 3 4 5 6 7 8 10 11 15: 56.2 a.u.
2'F-ANA at 1 5 7 8 14: 45.4 a.u.
